Experimental data pooled from the literature.
A part holds a random share of what one study measured.
Chain of UniProt Q00526 (whole entry, looked up): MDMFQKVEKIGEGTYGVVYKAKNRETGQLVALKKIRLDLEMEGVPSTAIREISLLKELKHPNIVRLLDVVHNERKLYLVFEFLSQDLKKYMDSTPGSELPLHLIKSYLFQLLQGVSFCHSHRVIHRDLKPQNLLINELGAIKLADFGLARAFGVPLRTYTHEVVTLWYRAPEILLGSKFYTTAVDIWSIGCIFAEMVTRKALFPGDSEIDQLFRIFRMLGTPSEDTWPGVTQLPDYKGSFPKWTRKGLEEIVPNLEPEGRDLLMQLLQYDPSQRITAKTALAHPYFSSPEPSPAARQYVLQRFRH
Chain of UniProt Q8TD19 (whole entry, looked up): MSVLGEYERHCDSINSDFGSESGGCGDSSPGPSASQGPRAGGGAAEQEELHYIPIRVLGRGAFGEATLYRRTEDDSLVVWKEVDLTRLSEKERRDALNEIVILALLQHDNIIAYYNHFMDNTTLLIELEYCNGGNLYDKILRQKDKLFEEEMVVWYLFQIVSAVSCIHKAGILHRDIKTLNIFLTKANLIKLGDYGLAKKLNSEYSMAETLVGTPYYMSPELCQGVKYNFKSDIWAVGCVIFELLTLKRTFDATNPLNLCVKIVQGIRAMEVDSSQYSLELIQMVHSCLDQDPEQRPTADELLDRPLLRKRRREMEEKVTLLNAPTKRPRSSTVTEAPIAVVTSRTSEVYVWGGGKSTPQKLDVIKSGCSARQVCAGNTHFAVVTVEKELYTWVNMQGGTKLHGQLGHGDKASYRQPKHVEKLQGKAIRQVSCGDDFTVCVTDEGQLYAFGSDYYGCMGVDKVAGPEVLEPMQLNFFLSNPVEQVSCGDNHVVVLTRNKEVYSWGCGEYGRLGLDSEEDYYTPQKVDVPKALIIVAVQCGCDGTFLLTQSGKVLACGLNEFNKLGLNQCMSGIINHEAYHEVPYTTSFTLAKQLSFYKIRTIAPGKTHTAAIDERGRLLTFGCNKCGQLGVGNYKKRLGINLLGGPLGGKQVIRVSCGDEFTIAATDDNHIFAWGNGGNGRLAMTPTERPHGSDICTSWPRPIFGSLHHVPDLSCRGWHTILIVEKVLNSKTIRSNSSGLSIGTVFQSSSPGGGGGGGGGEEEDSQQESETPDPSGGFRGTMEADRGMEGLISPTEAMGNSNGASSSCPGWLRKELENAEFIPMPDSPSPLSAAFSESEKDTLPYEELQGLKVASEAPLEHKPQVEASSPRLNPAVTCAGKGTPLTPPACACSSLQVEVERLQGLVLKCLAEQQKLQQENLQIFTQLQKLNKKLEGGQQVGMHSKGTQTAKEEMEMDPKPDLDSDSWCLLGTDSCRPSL
Chain of UniProt Q9HAZ1 (whole entry, looked up): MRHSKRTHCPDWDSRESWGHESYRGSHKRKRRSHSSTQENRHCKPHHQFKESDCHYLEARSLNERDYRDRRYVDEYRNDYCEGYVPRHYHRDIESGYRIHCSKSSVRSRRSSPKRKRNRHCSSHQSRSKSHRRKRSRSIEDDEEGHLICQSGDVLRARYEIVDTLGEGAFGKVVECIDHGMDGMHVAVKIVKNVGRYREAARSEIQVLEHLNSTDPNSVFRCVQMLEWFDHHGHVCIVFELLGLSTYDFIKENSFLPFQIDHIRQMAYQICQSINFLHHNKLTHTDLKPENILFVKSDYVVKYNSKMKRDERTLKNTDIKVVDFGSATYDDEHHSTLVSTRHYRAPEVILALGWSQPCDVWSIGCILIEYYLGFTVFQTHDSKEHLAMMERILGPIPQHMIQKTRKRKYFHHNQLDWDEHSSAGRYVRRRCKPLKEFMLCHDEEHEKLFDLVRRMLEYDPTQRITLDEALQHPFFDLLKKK
Chain of UniProt Q9H0K1 (whole entry, looked up): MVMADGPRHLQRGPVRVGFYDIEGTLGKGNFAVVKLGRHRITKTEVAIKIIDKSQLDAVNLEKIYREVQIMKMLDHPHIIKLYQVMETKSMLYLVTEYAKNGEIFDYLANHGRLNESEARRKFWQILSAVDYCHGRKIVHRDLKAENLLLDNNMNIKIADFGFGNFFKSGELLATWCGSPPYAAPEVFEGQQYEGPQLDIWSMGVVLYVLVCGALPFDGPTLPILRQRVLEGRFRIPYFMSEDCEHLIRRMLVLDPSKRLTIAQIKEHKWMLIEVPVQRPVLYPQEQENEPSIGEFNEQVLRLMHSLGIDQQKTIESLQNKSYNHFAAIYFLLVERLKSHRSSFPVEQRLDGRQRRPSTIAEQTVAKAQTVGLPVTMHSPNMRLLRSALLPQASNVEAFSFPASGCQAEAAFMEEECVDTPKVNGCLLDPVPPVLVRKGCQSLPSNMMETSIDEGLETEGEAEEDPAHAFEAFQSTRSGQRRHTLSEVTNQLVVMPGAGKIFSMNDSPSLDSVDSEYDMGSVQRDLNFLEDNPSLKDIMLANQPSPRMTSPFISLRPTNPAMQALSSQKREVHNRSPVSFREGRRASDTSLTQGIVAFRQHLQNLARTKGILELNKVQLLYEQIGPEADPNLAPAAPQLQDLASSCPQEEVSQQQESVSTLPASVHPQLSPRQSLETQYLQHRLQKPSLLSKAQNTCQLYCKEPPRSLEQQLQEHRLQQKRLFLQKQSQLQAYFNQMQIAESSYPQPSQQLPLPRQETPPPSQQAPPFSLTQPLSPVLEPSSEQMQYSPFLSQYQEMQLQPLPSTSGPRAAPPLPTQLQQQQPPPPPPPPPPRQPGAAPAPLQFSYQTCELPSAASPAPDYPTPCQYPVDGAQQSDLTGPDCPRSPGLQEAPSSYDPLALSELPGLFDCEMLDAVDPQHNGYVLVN
Chain of UniProt Q96D53 (whole entry, looked up): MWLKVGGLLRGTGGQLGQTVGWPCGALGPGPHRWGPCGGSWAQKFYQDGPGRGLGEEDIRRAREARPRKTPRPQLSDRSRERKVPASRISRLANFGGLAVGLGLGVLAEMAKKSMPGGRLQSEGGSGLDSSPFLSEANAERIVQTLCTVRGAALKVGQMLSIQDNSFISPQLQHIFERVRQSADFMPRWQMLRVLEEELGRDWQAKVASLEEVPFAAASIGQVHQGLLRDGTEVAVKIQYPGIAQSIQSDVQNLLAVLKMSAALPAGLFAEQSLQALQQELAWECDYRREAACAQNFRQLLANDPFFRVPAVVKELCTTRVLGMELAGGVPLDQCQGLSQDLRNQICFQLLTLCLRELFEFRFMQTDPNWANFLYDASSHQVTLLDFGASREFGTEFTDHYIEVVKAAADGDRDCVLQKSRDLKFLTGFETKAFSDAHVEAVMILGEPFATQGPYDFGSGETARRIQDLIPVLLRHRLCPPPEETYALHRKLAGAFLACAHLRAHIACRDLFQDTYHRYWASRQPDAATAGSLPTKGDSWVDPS

Sample 1
Target: Tyrosine-protein kinase CSK (CSK, Homo sapiens, UniProt P41240)
Chain of UniProt P41240 (whole entry, looked up): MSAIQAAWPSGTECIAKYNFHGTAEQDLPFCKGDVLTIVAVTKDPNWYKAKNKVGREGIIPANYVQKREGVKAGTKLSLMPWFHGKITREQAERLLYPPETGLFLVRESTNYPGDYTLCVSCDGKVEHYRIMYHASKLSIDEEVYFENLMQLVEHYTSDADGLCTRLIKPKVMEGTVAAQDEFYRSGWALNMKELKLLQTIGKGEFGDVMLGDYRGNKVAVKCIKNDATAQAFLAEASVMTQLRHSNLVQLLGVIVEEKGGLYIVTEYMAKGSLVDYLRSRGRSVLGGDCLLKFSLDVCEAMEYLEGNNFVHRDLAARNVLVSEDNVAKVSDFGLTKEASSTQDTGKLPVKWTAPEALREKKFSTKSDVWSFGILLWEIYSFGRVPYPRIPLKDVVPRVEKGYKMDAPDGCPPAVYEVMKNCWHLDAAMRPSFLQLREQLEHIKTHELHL
Effect on: enzyme activity
Mode: inhibitor
Tested at: 0.5 µM
Reference: control
`CC#CC(=O)Nc1cc2c(Nc3ccc(F)c(Cl)c3)ncnc2cn1` gave a remaining activity of 100%.
For `CCCC(=O)Oc1ccc2[nH]c(C(=O)c3cc4ccccc4[nH]3)cc2c1`, the remaining activity was 83.5%.
`CCc1[nH]c(-c2ccc(OC)cc2)nc1-c1ccncc1` gave a remaining activity of 101%.
With `Cc1cc(Nc2nc(-c3ccccc3)nc3ccccc23)n[nH]1` the remaining activity was 98.4%.
The remaining activity of `COc1cc(Nc2c(C#N)cnc3cc(OCCCN4CCN(C)CC4)c(OC)cc23)c(Cl)cc1Cl` is reported as 12.3%.
The remaining activity of `Cc1ccc(NC2=CC(=O)c3sc(C)nc3C2=O)cc1` is reported as 102%.
The remaining activity of `Oc1ccc(Nc2nc(-c3ccc(Cl)cc3)cs2)cc1` is reported as 101%.
The remaining activity of `CSc1nc(-c2ccnc(N[C@@H](C)c3ccccc3)c2)c(-c2ccc(F)cc2)[nH]1` (racemic) is reported as 82.4%.
`Nc1ncnc2c1cnn2-c1ccccc1` has a remaining activity of 86.8%.
For `CC[n+]1c(/C=C/N(C)c2ccccc2)n(-c2ccccc2)c2ccc(-c3nc4ccccc4s3)cc21`, the remaining activity was 100%.
The remaining activity of `Nc1nc(Nc2ccc(S(N)(=O)=O)cc2)nn1C(=O)c1c(F)cccc1F` is reported as 88.9%.
`COc1ccc(S(=O)(=O)N(CCO)c2ccccc2CN(C)CC=Cc2ccc(Cl)cc2)cc1` gave a remaining activity of 95.6%.
With `N#CC(=C(N)Sc1ccc(N)cc1)c1ccccc1C(F)(F)F` the remaining activity was 90.9%.
For `O=S(=O)(NCCNC/C=C/c1ccc(Br)cc1)c1cccc2cnccc12`, the remaining activity was 95.6%.
`Nc1nccc(-c2c(-c3ccc(F)cc3)ncn2C2CCNCC2)n1` has a remaining activity of 90.8%.
`O=C1Cc2c([nH]c3ccc([N+](=O)[O-])cc23)-c2ccccc2N1` gave a remaining activity of 96.6%.
`CC(=O)c1ccc(N2CCOCC2)cc1O` gave a remaining activity of 99.1%.
`CC(C)(C)n1nc(Cc2cccc3ccccc23)c2c(N)ncnc21` has a remaining activity of 46.1%.
`O=C1NC(=O)C(c2c[nH]c3ccccc23)=C1c1c[nH]c2ccccc12` has a remaining activity of 103%.
`NC(=O)c1ccc(N(C(N)=O)c2c(F)cccc2F)nc1-c1ccc(F)cc1F` gave a remaining activity of 90%.

Sample 2
SMILES: O=C(O)[C@H]1[C@H](Cn2nnc3ccccc3c2=O)CC[C@@H]1C(=O)c1ccc(OCCC2CCOCC2)cc1
Effect on: cell-free assay
Technique: competition with immobilised ligand
Tested at: 1 µM
For EGFR (Homo sapiens, UniProt P00533, L858R/T790M): remaining binding read 64%.
The remaining binding was 87% (COQ8B (Homo sapiens, UniProt Q96D53)).
The remaining binding was 100% (SIK2 (Homo sapiens, UniProt Q9H0K1)).
PIK3CG (Homo sapiens, UniProt P48736) — remaining binding: 90%.
It gave 100% for remaining binding (CLK4 (Homo sapiens, UniProt Q9HAZ1)).
RIOK1 (Homo sapiens, UniProt Q9BRS2) — remaining binding: 100%.
The remaining binding was 100% (CDK3 (Homo sapiens, UniProt Q00526)).
MAPK4 (Homo sapiens, UniProt P31152) — remaining binding: 82%.
The remaining binding was 100% (MET (Homo sapiens, UniProt P08581, M1250T)).
NEK9 (Homo sapiens, UniProt Q8TD19) — remaining binding: 91%.

Sample 3
Structure (SMILES): C=CCc1ccc(O)c(-c2cc(CC=C)ccc2O)c1
Effect on: chloride current
Technique: whole-cell voltage clamp
ANO1 del476-501/R541K: Anoctamin-1 (ANO1, Homo sapiens, UniProt Q5XXA6, del476-501/R541K)
Chain of UniProt Q5XXA6 (whole entry, unmodified, looked up): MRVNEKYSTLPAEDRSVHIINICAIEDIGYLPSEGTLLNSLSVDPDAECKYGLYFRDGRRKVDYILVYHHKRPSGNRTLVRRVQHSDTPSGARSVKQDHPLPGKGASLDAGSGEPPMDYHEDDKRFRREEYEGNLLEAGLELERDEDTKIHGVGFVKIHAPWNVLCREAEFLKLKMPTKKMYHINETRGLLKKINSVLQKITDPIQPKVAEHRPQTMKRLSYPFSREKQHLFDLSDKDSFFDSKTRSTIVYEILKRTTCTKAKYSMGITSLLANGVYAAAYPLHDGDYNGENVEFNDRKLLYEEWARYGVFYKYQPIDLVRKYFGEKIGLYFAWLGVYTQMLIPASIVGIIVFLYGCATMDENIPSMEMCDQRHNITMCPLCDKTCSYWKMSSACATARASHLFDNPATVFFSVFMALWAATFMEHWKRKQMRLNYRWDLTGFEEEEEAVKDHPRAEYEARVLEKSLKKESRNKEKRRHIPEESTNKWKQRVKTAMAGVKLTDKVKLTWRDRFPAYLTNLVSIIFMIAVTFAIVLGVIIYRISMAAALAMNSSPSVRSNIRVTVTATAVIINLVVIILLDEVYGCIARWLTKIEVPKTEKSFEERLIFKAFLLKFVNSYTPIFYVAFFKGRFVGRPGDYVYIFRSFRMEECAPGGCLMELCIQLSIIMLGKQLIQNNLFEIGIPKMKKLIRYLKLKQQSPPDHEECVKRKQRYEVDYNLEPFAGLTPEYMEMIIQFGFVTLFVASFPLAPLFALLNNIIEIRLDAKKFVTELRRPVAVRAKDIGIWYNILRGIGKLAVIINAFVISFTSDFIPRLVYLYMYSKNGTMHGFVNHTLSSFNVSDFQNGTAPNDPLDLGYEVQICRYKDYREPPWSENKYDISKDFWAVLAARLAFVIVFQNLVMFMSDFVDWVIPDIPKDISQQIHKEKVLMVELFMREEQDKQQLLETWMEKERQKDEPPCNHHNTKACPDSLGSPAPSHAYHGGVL
ANO1 del476-501/M544I: Anoctamin-1 (ANO1, Homo sapiens, UniProt Q5XXA6, del476-501/M544I)
ANO1 del476-501/E649I: Anoctamin-1 (ANO1, Homo sapiens, UniProt Q5XXA6, del476-501/E649I)
The IC50 was 20.4 µM (ANO1 del476-501/R541K; inhibitor; R515K mutant at 60 mV).
It gave 210 µM for IC50 (ANO1 del476-501/M544I; inhibitor; 60 mV holding voltage).
For Anoctamin-1 (ANO1, Homo sapiens, UniProt Q5XXA6, del476-501/L548A); membrane voltage 60 mV: IC50 read 32.3 µM.
ANO1 del476-501/E649I; inhibitor; E623I mutant at -20 mV — IC50: 136 µM.
For Anoctamin-1 (ANO1, Homo sapiens, UniProt Q5XXA6, del476-501/R541I); inhibitor; R515I mutant at 40 mV: IC50 read 53.1 µM.
The IC50 was 22.2 µM (Anoctamin-1 (ANO1, Homo sapiens, UniProt Q5XXA6, del476-501/F646A); membrane voltage 60 mV).
For ANO1 del476-501/E649I; inhibitor; mutant E623I: IC50 read 121 µM.
It gave 26.5 µM for IC50 (ANO1 del476-501/R541K; inhibitor; R515K mutant at -100 mV).
For Anoctamin-1 (ANO1, Homo sapiens, UniProt Q5XXA6, del476-501/M544T); inhibitor; 100 mV holding voltage: IC50 read 31.9 µM.
The IC50 was 162 µM (Anoctamin-1 (ANO1, Homo sapiens, UniProt Q5XXA6, del476-501/K629R); inhibitor; 20 mV holding voltage).
ANO1 del476-501/M544I; inhibitor; mutant M518I — IC50: 176 µM.

Further values, each from its own experiment
`CC(C)C[C@@H]1NC(=O)[C@H](CC(C)C)NC(=O)[C@H](CC(C)C)NC(=O)[C@H](C(C)C)NC(=O)[C@H](C)NC(=O)[C@H](C)NC(=O)[C@H](CCC(=O)N2CCCC2)NC1=O` has a logD of -2.36 (pH 7.4).

Some of these lines once more (sample 1):
The remaining activity of `Cc1ccc(NC2=CC(=O)c3sc(C)nc3C2=O)cc1` is reported as 102%.
The remaining activity of `Oc1ccc(Nc2nc(-c3ccc(Cl)cc3)cs2)cc1` is reported as 101%.
The remaining activity of `CSc1nc(-c2ccnc(N[C@@H](C)c3ccccc3)c2)c(-c2ccc(F)cc2)[nH]1` (racemic) is reported as 82.4%.
`Nc1ncnc2c1cnn2-c1ccccc1` has a remaining activity of 86.8%.
For `CC[n+]1c(/C=C/N(C)c2ccccc2)n(-c2ccccc2)c2ccc(-c3nc4ccccc4s3)cc21`, the remaining activity was 100%.
The remaining activity of `Nc1nc(Nc2ccc(S(N)(=O)=O)cc2)nn1C(=O)c1c(F)cccc1F` is reported as 88.9%.
`COc1ccc(S(=O)(=O)N(CCO)c2ccccc2CN(C)CC=Cc2ccc(Cl)cc2)cc1` gave a remaining activity of 95.6%.
